Results from different studies.
Lines come from different studies, so protocols differ. ± gives the spread as reported.
Target: Tyrosine-protein kinase Fgr (FGR, Homo sapiens, UniProt P09769)
Chain of UniProt P09769 (whole entry, looked up): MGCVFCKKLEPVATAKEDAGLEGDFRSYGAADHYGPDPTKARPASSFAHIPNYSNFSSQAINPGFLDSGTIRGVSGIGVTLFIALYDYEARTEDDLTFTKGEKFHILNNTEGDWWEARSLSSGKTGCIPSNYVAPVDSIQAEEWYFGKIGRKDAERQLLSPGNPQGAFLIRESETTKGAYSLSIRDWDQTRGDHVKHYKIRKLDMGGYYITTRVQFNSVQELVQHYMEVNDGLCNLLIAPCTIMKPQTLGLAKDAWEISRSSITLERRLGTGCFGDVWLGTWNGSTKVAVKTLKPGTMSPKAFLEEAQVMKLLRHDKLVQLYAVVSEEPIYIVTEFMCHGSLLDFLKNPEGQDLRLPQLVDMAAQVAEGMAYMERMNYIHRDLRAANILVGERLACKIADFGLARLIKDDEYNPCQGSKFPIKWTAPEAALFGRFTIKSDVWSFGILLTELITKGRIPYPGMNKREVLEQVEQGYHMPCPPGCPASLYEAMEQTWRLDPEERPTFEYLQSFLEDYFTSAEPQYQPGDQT

Compound = C#Cc1cc(-c2cc(Nc3nc(N[C@@H](C)c4ccc(F)cn4)ncc3Cl)n[nH]2)ccc1C=O; test = enzyme activity, inhibitor; setting = 0.2 µM; quantity = inhibition; result = 95%
Compound = C=CC(=O)N1CCC(COCC(=O)N2CCN(c3nc(-c4cnc(N)nc4C(F)F)nc(N4CCOC[C@@H]4C)n3)CC2)CC1; test = KINOMEscan; setting = 1 µM; quantity = remaining binding; result = 100%
Compound = CC#CC(=O)N1CCC[C@H]1c1nc(-c2ccc(C(=O)Nc3ccccn3)cc2)c2c(N)nccn12; test = kinase activity, inhibitor, HotSpot radiometric; setting = 100 nM, added: ATP 10 µM; quantity = remaining activity; result = 99 ± 2.5%
Compound = [2H]c1cc(C)c(NC(=O)c2cnc(Nc3cc(N4CCC(O)CC4)nc(C)n3)s2)c(Cl)c1; setting = 0.001 µM; quantity = inhibition; result = > 50%
Compound = C=CC(=O)N1CCC(C(=O)NCC(=O)N2CCN(c3nc(-c4cnc(N)nc4C(F)F)nc(N4CCOCC4)n3)CC2)CC1; test = KINOMEscan; setting = 1 µM; quantity = remaining binding; result = 97%
Compound = COc1ccc(F)cc1C(=O)NCc1ccc(-c2nn([C@@H](C)C(F)(F)F)c(N)c2C(N)=O)cc1; test = kinase activity, inhibitor, HotSpot radiometric; setting = 1000 nM, added: ATP at Km; quantity = remaining activity; result = 67.1 ± 0.5%
Compound = O=C(NC1CCC1)c1ccc2nc(-c3cccc(NS(=O)(=O)NCCN4CCCCC4)c3)cn2c1; test = enzyme activity; setting = 10 µM; quantity = remaining activity; result = 87%
Compound = Cc1cc(Nc2cc(N3CCN(C)CC3)nc(Sc3ccc(NC(=O)C4CC4)cc3)n2)[nH]n1; test = kinase activity, KinaseProfiler; setting = 0.03 µM, species human; how to read = baseline: control; quantity = remaining activity; result = 86%
Compound = C=CC(=O)N1CCC([C@@H]2CCNc3c(C(N)=O)c(-c4ccc(Oc5ccccc5)cc4)nn32)CC1; test = kinase activity, inhibitor, HotSpot radiometric; setting = 100 nM, added: ATP 10 µM; quantity = remaining activity; result = 64.2 ± 0.3%
Compound = [2H]c1cc(C)c(NC(=O)c2cnc(Nc3cc(N4CCCCC4)nc(C)n3)s2)c(Cl)c1; setting = 0.01 µM; quantity = inhibition; result = > 90%

Excerpt of the above:
Compound = C=CC(=O)N1CCC(C(=O)NCC(=O)N2CCN(c3nc(-c4cnc(N)nc4C(F)F)nc(N4CCOCC4)n3)CC2)CC1; test = KINOMEscan; setting = 1 µM; quantity = remaining binding; result = 97%
